Measured values from different studies.
Numbers after ± are the reported error.

CC(=O)c1cnc(N)nc1N1CC[C@H]1c1nn2ccc(Cl)c2c(=O)n1-c1ccccc1  inhibition (anti-IgD B cell activation, measured: CD86; rat, blood; oral, 1 mg/kg, up to 24 h): ~40%
COc1c2c(cc3oc(CO)cc(=O)c13)O[C@H](C(C)(C)O)C2  hot plate latency (analgesic effect; mouse; oral, 1 mg/kg, 1 h): 11.5 ± 0.6 s
Cc1nc(C)c(C=[N+]([O-])C(C)(C)C)nc1C  protein level increase (Western blot, measured: HO-1; mouse, MPTP model, substantia nigra nuclei; 10 mg/kg): 23.9%
O/N=C/c1cnn(-c2ccccc2)n1  clotting time (aPTT; human plasma; 1 µM): 51.5 ± 0.8 s
CC(C)(CCCC/C=C/CCCCCC(C)(C)C(=O)O)C(=O)O  cholesterol AUC(0-4 h) decrease (VLDL-TG secretion; C57BL/6J mice; 100 mg/kg, with: tyloxapol 600 mg/kg): 58.9%
CCOc1ccccc1-c1nnc2n1N=C(c1ccc(N3CCCC3)cc1)CS2  healing time reduction (db/db diabetic mice, excisional wounds; 10 µM; baseline: PBS): 36%
C=C(c1cc(F)c(C(=O)O)c(F)c1)c1cc2c(cc1C)C(C)(C)CCC2(C)C  log2 fold change (RNA sequencing, measured: Dlx2 mRNA; rat, brain; dose not given, 24 h, single dose; baseline: vehicle): 0.92
CCCN(c1ccc(C(=O)NCCC(=O)O)cc1)S(=O)(=O)c1cc(C)c(-c2ccc(C(C)(C)C)cc2)c(C)c1  glucose AUC (glucagon challenge test; mouse, HFD-induced obese; oral, 50 mg/kg, with: glucagon 15 µg/kg ip): decreased
OCc1cnn(-c2ccccc2)n1  clotting time (aPTT; human plasma; 1 µM): 51.4 ± 0.7 s
N#Cc1cc(C(=O)OCC[18F])c(C(F)(F)F)nc1N1CCN(C(=O)Cc2ccccc2)CC1  target to normal ratio (PET; mouse, orthotopic GL261 glioma, brain tumour): 1.47 ± 0.01
CC(C)[C@H](NC(=O)CN)C(=O)N[C@@H](CCCCN)C(=O)NCC(=O)N[C@@H](CC(=O)O)C(=O)N[C@@H](CCCCN)C(=O)NCC(=O)N[C@@H](CC(N)=O)C(=O)N1CCC[C@H]1C(=O)NCC(=O)N[C@@H](Cc1c[nH]c2ccccc12)C(=O)N1CCC[C@H]1C(=O)NCC(=O)N[C@@H](C)C(=O)N1CCC[C@H]1C(=O)O  maximal spreading cells (K1735 M4 melanoma, mouse; 200 µg/mL coating, 40 min, peptide-coated plates; baseline: input cells): ~70%
CCCCOCc1cn(-c2cc(Cl)ccc2Cl)nn1  clotting time (plasma recalcification time; human plasma; 1 µM): 244 ± 11 s
O=[N+]([O-])c1ccc(S(=O)(=O)Oc2ccc(Br)cc2C=NNC(=S)Nc2ccccc2)c([N+](=O)[O-])c1  time to complete conversion (conversion to phenolic chelator; PBS/DMF 1:1; 100 µM, pH 7.40, 37 °C, with: glutathione 10 mM): ≤ 2 h
O=[N+]([O-])c1cccc(S(=O)(=O)NC[C@@H](O)[C@@H]2CCc3cc(F)ccc3O2)c1  paw volume (rat, carrageenan paw oedema; oral, 100 mg/kg, 1 h after carrageenan): 0.65 ± 0.2 mL
CCCCCCCCCCCCCCCC(=O)OCC(CSC[C@H](N)C(=O)N[C@@H](CO)C(=O)N[C@@H](CCCCN)C(=O)N[C@@H](CCCCN)C(=O)N[C@@H](CCCCN)C(=O)N[C@@H](CCCCN)C(=O)NCCCCCC(=O)N[C@@H](CCCCN)C(=O)N[C@@H](CC(C)C)C(=O)N[C@H](C(=O)N[C@@H](Cc1ccccc1)C(=O)N[C@@H](Cc1ccccc1)C(=O)N[C@@H](Cc1ccc2ccccc2c1)C(=O)O)C(C)C)OC(=O)CCCCCCCCCCCCCCC (stereo partly shown)  Iba1 staining ratio (APP/PS1 mouse, 13 months; intracortical, 100 µM, 300 nL, 5 d; baseline: injected over adjacent side): 3.09 ± 0.91
Cc1ccc([C@@H]2O[C@H](CO)[C@@H](O)[C@H](O)[C@H]2O)cc1Cc1ccc(-c2ccc(F)cc2)s1  blood urea nitrogen (rabbit, STZ-nicotinamide diabetes, serum; concentration not given, 28 days): 72.1 ± 6.01 mg/dL
CC[C@H]1[C@@H](O)[C@@H]2[C@H](CC[C@]3(C)[C@@H]([C@H](C)CCOS(=O)(=O)[O-])CC[C@@H]23)[C@@]2(C)CC[C@@H](O)C[C@@H]12.[Na+]  plasma total cholesterol (ob/ob NASH mice, plasma; oral, 3 mg/kg once daily, baseline before treatment, 8 wk study): 10.3 ± 0.8 mmol/L
COc1ccc(-n2cc(CO)nn2)cc1  clotting time (prothrombin time; human plasma; 1 µM): 15.8 ± 1 s
CCCCCCCCCCCCCCCC(=O)N[C@@H](CCC(=O)NCCCC[C@H](NC(=O)[C@H](CC(=O)O)NC(=O)[C@H](CO)NC(=O)[C@@H](NC(=O)[C@H](Cc1ccccc1)NC(=O)[C@@H](NC(=O)CNC(=O)[C@H](CCC(N)=O)NC(=O)[C@H](CO)NC(=O)[C@@H](N)Cc1c[nH]cn1)[C@@H](C)O)[C@@H](C)O)C(=O)N[C@@H](CO)C(=O)N[C@@H](CCC(=O)O)C(=O)N[C@@H](Cc1ccc(O)cc1)C(=O)N[C@@H](CC(C)C)C(=O)N[C@@H](CC(=O)O)C(=O)N[C@@H](CO)C(=O)N[C@@H](CCC(=O)O)C(=O)N[C@@H](CCCNC(=N)N)C(=O)N[C@@H](C)C(=O)N[C@@H](CCCNC(=N)N)C(=O)N[C@@H](CC(=O)O)C(=O)N[C@@H](Cc1ccccc1)C(=O)N[C@H](C(=O)N[C@@H](C)C(=O)N[C@@H](Cc1c[nH]c2ccccc12)C(=O)N[C@@H](CC(C)C)C(=O)N[C@@H](CCC(=O)O)C(=O)N[C@@H](C)C(=O)NCC(=O)NCC(=O)O)C(C)C)C(=O)O  glucose AUC (intraperitoneal glucose tolerance test; diet-induced obese mouse; subcutaneous, 30 nmol/kg daily, day 21, with: glucose 1 g/kg intraperitoneal): 1280 mmol·min/L
COc1cc2c(cc1OC)-c1cc3ccc(OC)c(OC)c3c[n+]1CC2  SOD activity (rat, STZ-induced diabetic, liver; oral, 12 mg/kg, day 28): 7.76 ± 0.63 U/mg protein
Cc1ccc(S(=O)(=O)N(CCc2nnc(S)n2N)c2ccccc2)cc1  inhibition (paw oedema; rat carrageenan oedema; dose not given, 6 h): 57.6%
C=C(c1ncc(C(=O)O)cn1)c1cc2c(cc1C)C(C)(C)CCC2(C)C  log2 fold change (RNA sequencing, measured: Pdk4; rat, brain; dose not given, 24 h; baseline: vehicle): -0.44
COc1ccc2c(c1)c(CC(=O)OCC(=O)c1ccccc1)c(C)n2C(=O)c1ccc(Cl)cc1  latency of nociceptive response (hot plate test; BALB/c mice; 75 mg/kg, 120 min): 15.5 ± 1.39 s
COc1ccc(C2CC(c3ccc(C)cc3)=Nc3ccccc3S2)cc1 (stereo not shown)  blood glucose (Wistar rat, STZ-induced diabetes; oral, 10 mg/kg once daily, day 7): 292 ± 4.71 mg/dL
Cc1cc(C)c(-c2[nH]nc(C)c2C)cc1C(=O)N1CC(c2ccc(C#N)cc2)C1  tumour growth inhibition (Calu-6 xenograft, Mus musculus; oral, 60 mg/kg once daily, 96 h; baseline: vehicle): 14%
C[C@H](NC(=O)COC(=O)[C@H](C)NC(=O)CO)C(=O)O  depolymerization rate constant (water; pH 6, 25 °C): 0.249 h⁻¹
COc1ccc2c(c1)c(CC(=O)OCOC(C)=O)c(C)n2C(=O)c1ccc(Cl)cc1  latency of nociceptive response (hot plate test; BALB/c mice; 100 mg/kg, 30 min): 17.4 ± 0.86 s
C=CC(=O)Nc1cc(Nc2nccc(-n3ccc4nc(OC)ccc43)n2)c(OC)cc1N(C)CCN(C)C  tumour shrinkage (human; 40 mg once daily, 14 weeks): 50.3%
O=S(=O)(c1ccccc1)N(CCc1nnc(S)o1)c1ccc(Cl)cc1  paw edema inhibition (rat; 200 mg/kg, 3 h, with: carrageenan): 47.4%
NS(=O)(=O)c1ccc(NC(=O)NN[C@@H]2O[C@H](CO)[C@@H](O)[C@H](O)[C@H]2O)cc1  IOP reduction (rabbit glaucoma model; topical ocular, 2%, 2 h): ~7 mm Hg
Cc1cc(Nc2cc3ncccc3c(N[C@@H]3C[C@H]4CC[C@@H](C3)N4CCC#N)n2)n[nH]1  endoscopic improvement (moderate-severe ulcerative colitis patients; 80 mg, day 28; baseline: patients): 30%

Repeated from above:
COc1ccc(-n2cc(CO)nn2)cc1  clotting time (prothrombin time; human plasma; 1 µM): 15.8 ± 1 s
CCCCCCCCCCCCCCCC(=O)N[C@@H](CCC(=O)NCCCC[C@H](NC(=O)[C@H](CC(=O)O)NC(=O)[C@H](CO)NC(=O)[C@@H](NC(=O)[C@H](Cc1ccccc1)NC(=O)[C@@H](NC(=O)CNC(=O)[C@H](CCC(N)=O)NC(=O)[C@H](CO)NC(=O)[C@@H](N)Cc1c[nH]cn1)[C@@H](C)O)[C@@H](C)O)C(=O)N[C@@H](CO)C(=O)N[C@@H](CCC(=O)O)C(=O)N[C@@H](Cc1ccc(O)cc1)C(=O)N[C@@H](CC(C)C)C(=O)N[C@@H](CC(=O)O)C(=O)N[C@@H](CO)C(=O)N[C@@H](CCC(=O)O)C(=O)N[C@@H](CCCNC(=N)N)C(=O)N[C@@H](C)C(=O)N[C@@H](CCCNC(=N)N)C(=O)N[C@@H](CC(=O)O)C(=O)N[C@@H](Cc1ccccc1)C(=O)N[C@H](C(=O)N[C@@H](C)C(=O)N[C@@H](Cc1c[nH]c2ccccc12)C(=O)N[C@@H](CC(C)C)C(=O)N[C@@H](CCC(=O)O)C(=O)N[C@@H](C)C(=O)NCC(=O)NCC(=O)O)C(C)C)C(=O)O  glucose AUC (intraperitoneal glucose tolerance test; diet-induced obese mouse; subcutaneous, 30 nmol/kg daily, day 21, with: glucose 1 g/kg intraperitoneal): 1280 mmol·min/L
COc1cc2c(cc1OC)-c1cc3ccc(OC)c(OC)c3c[n+]1CC2  SOD activity (rat, STZ-induced diabetic, liver; oral, 12 mg/kg, day 28): 7.76 ± 0.63 U/mg protein
Cc1ccc(S(=O)(=O)N(CCc2nnc(S)n2N)c2ccccc2)cc1  inhibition (paw oedema; rat carrageenan oedema; dose not given, 6 h): 57.6%
